Results gathered from unrelated publications.
Every numbered part comes from another study and shows a few of its results, in no order.

Block 1 — technique: protein-binding microarray; form: double-stranded DNA, one strand shown; matrix: in vitro; tested at: 250 nM; setting: 60-bp whole probe; added: salmon DNA 0.4 mg/ml; reference: random background probes; direction: higher = stronger binding; measurement: log fluorescence
Target: Interferon regulatory factor 7, full length, phosphomimetic (IRF7, Homo sapiens, UniProt Q92985, residues 1-503, S101K/S471D/S472D/S475D/S476D/S477D/S483D/S484D/S487D)
Chain of UniProt Q92985 (whole entry, unmodified, looked up): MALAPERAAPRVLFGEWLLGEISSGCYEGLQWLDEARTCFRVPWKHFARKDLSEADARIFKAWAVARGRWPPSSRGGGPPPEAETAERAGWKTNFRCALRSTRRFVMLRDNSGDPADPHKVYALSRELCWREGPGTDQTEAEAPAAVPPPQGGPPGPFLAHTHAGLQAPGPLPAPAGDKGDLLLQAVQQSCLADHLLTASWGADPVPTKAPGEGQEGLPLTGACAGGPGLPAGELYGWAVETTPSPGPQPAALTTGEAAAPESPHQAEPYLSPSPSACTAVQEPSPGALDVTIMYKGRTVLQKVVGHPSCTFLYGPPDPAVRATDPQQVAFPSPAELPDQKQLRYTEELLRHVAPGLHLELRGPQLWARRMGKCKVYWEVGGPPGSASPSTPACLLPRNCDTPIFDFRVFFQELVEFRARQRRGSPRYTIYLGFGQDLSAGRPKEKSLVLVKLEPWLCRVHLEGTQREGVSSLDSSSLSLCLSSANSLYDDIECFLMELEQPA
GCCTAGCACTTAGGTTTCGGTATCGCTTAGTGCTAGGTCTTGATTCGCTTGACGCTGCTG: 10.2 z-score
GCCTAGCACTGCTCTCCGGGGTCTGTGAGGGTGCTAGTCTTGATTCGCTTGACGCTGCTG: -0.293 z-score
GCCTAGCACGACGGACTGGACACTGGTGACGTGCTAGTCTTGATTCGCTTGACGCTGCTG: -0.604 z-score

Block 2 — technique: protein-binding microarray; form: double-stranded DNA, one strand shown; matrix: in vitro; tested at: not given; direction: higher = stronger binding; measurement: E-score
Target: Cyclic AMP-dependent transcription factor ATF-1 (ATF1, Homo sapiens, UniProt P18846, residues 1-271, full length assumed)
Setting: k-mer, scored over probes, only values ≥0.25
Target sequence (chain): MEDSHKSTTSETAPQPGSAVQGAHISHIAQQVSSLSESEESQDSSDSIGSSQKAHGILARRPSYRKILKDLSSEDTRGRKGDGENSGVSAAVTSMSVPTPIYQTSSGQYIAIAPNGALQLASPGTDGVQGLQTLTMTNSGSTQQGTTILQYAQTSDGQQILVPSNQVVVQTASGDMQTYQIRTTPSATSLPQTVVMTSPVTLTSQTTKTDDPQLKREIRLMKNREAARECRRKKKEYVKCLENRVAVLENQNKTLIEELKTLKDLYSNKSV
CGTCAAC: 0.3
CGTGTTA: 0.26
CACGTTA: 0.251

Block 3 — technique: aptamer microarray, sandwich; form: DNA with 2'F-ANA; matrix: in vitro; tested at: 200 nM; added: Cy3 exosite-II aptamer, 400 nM; direction: higher = stronger binding; measurement: mean fluorescence intensity
Target: Prothrombin, mature alpha-thrombin (F2, Homo sapiens, UniProt P00734)
Setting: whole 15-mer aptamer, many near background
GGTTGGTGTGGTTGG (2'F-ANA at 3 5 8 9 12 13): 188 a.u.
GGTTGGTGTGGTTGG (2'F-ANA at 3 5 6 7 10 13 14): 65 a.u.
GGTTGGTGTGGTTGG (2'F-ANA at 2 3 5 6 7 10 11 13): 46.8 a.u.
GGTTGGTGTGGTTGG (2'F-ANA at 1 4 5 9 12 13 14): 47.2 a.u.

Single results of other studies
PhoQ, residues 284 288 289 292 302 303 SNGLAW  fold induction (PhoP, residues 12 14 15 18 19 STHWV (Escherichia coli, UniProt P23836); Sort-seq, item: YFP reporter; E. coli; PhoQ-PhoP variant library, added: 10 µM Mg2+; reference: high Mg2+ state, higher = stronger signaling): 13.4

Excerpt of the above (block 3):
GGTTGGTGTGGTTGG (2'F-ANA at 3 5 8 9 12 13): 188 a.u.
